Published values from different studies.
Numbered parts are unrelated; each lists some results of a single study.
Chain of UniProt P35368 (whole entry, looked up): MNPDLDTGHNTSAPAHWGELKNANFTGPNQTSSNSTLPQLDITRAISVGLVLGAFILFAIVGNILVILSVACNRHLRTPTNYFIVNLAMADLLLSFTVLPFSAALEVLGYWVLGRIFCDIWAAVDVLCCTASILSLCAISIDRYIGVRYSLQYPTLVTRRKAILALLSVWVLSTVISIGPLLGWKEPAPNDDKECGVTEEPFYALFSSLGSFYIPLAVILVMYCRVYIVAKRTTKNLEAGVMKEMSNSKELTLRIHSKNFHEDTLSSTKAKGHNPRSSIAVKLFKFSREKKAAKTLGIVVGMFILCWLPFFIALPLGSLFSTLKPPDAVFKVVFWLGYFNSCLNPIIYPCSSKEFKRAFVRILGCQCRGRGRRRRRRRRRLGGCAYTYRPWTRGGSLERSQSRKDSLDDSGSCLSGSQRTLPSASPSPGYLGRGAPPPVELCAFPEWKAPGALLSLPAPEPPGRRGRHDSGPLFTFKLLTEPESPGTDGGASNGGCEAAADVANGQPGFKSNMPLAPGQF
Chain of UniProt P41143 (whole entry, looked up): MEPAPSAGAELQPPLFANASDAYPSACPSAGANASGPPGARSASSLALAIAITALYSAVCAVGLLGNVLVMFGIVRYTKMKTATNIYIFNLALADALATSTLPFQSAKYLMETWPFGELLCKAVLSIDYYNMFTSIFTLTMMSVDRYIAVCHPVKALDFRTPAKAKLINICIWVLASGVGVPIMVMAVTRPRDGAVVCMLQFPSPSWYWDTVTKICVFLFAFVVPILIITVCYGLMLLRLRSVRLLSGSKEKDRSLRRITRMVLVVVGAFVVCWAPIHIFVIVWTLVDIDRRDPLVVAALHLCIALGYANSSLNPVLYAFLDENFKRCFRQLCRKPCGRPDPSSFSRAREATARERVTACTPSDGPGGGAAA
Chain of UniProt P08172 (whole entry, looked up): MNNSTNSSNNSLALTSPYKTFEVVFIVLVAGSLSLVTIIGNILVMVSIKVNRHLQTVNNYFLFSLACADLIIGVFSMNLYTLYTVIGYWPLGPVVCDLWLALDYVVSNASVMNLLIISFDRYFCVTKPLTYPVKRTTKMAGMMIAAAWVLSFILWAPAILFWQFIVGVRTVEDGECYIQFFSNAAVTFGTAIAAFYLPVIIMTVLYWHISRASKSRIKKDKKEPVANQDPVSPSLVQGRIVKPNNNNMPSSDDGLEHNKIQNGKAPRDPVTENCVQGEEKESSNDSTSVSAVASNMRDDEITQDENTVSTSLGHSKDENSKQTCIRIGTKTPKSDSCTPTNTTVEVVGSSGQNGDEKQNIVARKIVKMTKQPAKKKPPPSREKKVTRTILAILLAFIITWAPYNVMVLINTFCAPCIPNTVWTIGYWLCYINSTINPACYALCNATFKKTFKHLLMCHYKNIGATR
Chain of UniProt P13945 (whole entry, looked up): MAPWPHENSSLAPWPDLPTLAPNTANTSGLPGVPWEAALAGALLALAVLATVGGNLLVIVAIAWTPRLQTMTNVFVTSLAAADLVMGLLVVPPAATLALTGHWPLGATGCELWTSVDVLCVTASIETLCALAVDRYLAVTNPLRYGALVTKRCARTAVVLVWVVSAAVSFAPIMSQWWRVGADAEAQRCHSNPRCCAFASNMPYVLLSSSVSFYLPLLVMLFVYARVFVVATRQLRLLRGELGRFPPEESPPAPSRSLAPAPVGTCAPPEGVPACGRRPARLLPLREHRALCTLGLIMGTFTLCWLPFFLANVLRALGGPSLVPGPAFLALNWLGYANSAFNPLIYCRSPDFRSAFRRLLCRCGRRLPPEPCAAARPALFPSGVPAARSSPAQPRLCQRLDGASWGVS
Chain of UniProt Q9H3N8 (whole entry, looked up): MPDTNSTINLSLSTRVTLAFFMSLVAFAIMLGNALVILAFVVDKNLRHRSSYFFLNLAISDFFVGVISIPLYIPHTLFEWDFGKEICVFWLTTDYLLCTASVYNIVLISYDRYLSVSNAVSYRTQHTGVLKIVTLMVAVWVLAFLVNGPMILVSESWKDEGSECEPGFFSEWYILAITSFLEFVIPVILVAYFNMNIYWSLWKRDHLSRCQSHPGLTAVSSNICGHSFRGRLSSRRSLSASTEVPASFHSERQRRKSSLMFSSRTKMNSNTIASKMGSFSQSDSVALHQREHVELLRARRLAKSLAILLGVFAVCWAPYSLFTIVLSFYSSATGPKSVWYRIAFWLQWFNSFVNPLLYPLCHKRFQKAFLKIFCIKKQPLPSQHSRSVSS
Chain of UniProt Q99720 (whole entry, looked up): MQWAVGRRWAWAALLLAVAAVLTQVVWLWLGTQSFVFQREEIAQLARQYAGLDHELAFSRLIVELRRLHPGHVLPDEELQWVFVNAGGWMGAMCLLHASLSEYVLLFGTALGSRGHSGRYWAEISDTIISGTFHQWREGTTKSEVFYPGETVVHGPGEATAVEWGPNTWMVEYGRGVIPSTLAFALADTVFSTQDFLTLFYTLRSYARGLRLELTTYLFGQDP
Chain of UniProt P11229 (whole entry, looked up): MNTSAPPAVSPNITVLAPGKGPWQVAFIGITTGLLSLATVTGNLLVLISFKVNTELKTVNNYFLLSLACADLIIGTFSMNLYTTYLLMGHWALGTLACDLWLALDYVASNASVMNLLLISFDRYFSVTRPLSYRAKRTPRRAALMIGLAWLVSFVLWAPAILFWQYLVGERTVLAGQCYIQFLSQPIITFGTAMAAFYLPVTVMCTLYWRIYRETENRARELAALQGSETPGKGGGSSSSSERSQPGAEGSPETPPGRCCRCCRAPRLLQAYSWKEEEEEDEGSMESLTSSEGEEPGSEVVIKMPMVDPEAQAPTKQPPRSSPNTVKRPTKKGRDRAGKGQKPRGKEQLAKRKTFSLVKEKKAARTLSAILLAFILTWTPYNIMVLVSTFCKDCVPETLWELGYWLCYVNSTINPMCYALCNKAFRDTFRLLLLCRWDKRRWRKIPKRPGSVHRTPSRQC
Chain of UniProt P21918 (whole entry, looked up): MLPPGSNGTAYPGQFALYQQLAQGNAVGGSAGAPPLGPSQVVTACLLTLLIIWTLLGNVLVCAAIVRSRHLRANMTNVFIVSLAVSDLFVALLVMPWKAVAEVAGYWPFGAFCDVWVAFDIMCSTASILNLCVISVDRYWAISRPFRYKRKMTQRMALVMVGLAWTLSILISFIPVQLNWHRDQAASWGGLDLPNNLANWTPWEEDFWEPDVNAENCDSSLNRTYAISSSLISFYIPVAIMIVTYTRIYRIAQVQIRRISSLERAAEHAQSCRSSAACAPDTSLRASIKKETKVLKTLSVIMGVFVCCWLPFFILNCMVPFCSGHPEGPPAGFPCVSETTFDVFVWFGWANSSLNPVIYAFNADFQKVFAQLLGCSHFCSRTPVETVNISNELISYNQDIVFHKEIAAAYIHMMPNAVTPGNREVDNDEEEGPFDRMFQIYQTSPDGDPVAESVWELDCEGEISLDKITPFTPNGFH
Chain of UniProt P50406 (whole entry, looked up): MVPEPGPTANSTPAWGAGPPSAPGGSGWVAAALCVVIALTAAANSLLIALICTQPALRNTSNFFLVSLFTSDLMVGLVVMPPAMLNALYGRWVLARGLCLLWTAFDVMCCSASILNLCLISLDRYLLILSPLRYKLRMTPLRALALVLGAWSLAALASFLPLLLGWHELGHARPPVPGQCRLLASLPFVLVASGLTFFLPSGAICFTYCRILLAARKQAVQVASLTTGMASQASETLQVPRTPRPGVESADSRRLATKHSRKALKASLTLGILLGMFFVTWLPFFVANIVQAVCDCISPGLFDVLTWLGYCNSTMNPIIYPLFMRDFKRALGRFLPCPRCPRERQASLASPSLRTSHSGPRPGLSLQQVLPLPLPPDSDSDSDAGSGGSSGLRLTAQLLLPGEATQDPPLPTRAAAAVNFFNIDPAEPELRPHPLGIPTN
Chain of UniProt Q5BJF2 (whole entry, looked up): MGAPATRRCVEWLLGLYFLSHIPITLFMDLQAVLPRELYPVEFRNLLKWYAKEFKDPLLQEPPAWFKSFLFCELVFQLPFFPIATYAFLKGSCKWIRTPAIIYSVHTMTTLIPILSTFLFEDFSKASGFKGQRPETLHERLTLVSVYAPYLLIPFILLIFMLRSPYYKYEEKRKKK

Study 1
Cell line: HaCaT
Tested at: 100 µM
Time: 36 h
Quantity: viability
CCC(=O)O[C@H]1CC[C@H]2[C@@H]3CCC4=CC(=O)CC[C@]4(C)[C@H]3CC[C@]12C: 38.4%
C[C@H]1CNCCc2ccc(Cl)cc21: 82%
ClCC1C(CCl)[C@@]2(Cl)C(Cl)=C(Cl)[C@]1(Cl)C2(Cl)Cl (stereo partly drawn): 5.77%
COc1ccc(CN2CCNCC2)c(OC)c1OC: 100%
N=C(N)NN: 91.1%

Study 2
Structure (SMILES): N#CC1(c2ccccn2)CCN(Cc2cc(C(=O)O)c(=O)n3ccccc23)CC1
Effect on: cell-free assay
Tested at: 10 µM
Quantity: inhibition
ADRA1B (Homo sapiens, UniProt P35368): 6.68%
DRD1 (Homo sapiens, UniProt P21728): -10.7%
TMEM97 (Homo sapiens, UniProt Q5BJF2): 5.17%
ADRA1A (Homo sapiens, UniProt P35348): -33.2%
HRH4 (Homo sapiens, UniProt Q9H3N8): -11.4%
ADRA2C (Homo sapiens, UniProt P18825): -13.9%
OPRD1 (Homo sapiens, UniProt P41143): -20.9%
HTR7 (Homo sapiens, UniProt P34969): -27%
CHRM1 (Homo sapiens, UniProt P11229): -1%
ADRA1D (Homo sapiens, UniProt P25100): -5.73%
HTR6 (Homo sapiens, UniProt P50406): -20%
CHRM5 (Homo sapiens, UniProt P08912): 4.74%
OPRM1 (Homo sapiens, UniProt P35372): 18.5%
CHRM2 (Homo sapiens, UniProt P08172): -8.07%
DRD4 (Homo sapiens, UniProt P21917): -8.33%
CHRM3 (Homo sapiens, UniProt P20309): -6.58%
OPRK1 (Homo sapiens, UniProt P41145): 47.3%
ADRB3 (Homo sapiens, UniProt P13945): -5.05%
SIGMAR1 (Homo sapiens, UniProt Q99720): 29.1%
DRD5 (Homo sapiens, UniProt P21918): -2.87%
ADRA2B (Homo sapiens, UniProt P18089): -6.86%

Study 3
Organism: Plasmodium berghei
Cell line: Huh-7
Strain: liver stage
Tested at: 10 µM
Time: 24 h
Baseline: control
Quantity: parasite load
CC(COc1ccccc1)N(CCCl)Cc1ccccc1 (stereo not drawn): 123%
C=C[C@H]1CN2CC[C@H]1C[C@H]2[C@H](O)c1ccnc2ccccc12: 101%
CN[C@@H](C)[C@@H](O)c1ccccc1: 102%
O=NN(CCCl)C(=O)NCCCl: 76%
COC(=O)C(c1ccccc1)C1CCCCN1 (stereo not drawn): 55.8%
Cc1ccc(O)c([C@H](CCN(C(C)C)C(C)C)c2ccccc2)c1: 106%
CCCC(C)C1(CC)C(=O)NC(=O)NC1=O (stereo not drawn): 91.7%
CCCSc1ccc2[nH]c(NC(=O)OC)nc2c1: 102%
FC(F)(F)COCC(F)(F)F: 91.7%
CC(=O)O[C@H]1C[C@H](O[C@H]2[C@@H](O)C[C@H](O[C@H]3[C@@H](O)C[C@H](O[C@H]4CC[C@@]5(C)[C@H](CC[C@@H]6[C@@H]5C[C@@H](O)[C@]5(C)[C@@H](C7=CC(=O)OC7)CC[C@]65O)C4)O[C@@H]3C)O[C@@H]2C)O[C@H](C)[C@H]1O[C@@H]1O[C@H](CO)[C@@H](O)[C@H](O)[C@H]1O: 18.5%

Study 4
Target: Beta-1 adrenergic receptor (ADRB1, Homo sapiens, UniProt P08588)
Chain of UniProt P08588 (whole entry, looked up): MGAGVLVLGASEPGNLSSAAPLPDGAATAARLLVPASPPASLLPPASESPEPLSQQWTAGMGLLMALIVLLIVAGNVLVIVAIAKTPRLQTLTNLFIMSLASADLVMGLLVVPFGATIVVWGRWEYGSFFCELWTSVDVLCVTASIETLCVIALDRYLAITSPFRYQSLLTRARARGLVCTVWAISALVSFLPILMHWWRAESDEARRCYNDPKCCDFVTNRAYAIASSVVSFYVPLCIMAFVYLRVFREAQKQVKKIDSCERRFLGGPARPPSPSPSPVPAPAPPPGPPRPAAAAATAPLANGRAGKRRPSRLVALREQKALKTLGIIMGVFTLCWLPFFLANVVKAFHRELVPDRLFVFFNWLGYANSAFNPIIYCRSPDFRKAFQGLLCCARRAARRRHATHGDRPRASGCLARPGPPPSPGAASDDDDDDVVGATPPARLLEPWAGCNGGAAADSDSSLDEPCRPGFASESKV
Action: agonist
Quantity: EC50
Cc1[nH]c2ccc(O)cc2c1CCN: ≥ 100 µM
CC(C)(C)NC[C@H](O)c1ccc(O)cc1Cl: 0.00833 µM
CN1CCN(c2ccc3ccccc3n2)CC1: ≥ 100 µM
Cn1c(N2CCNCC2)cc(=O)n(C)c1=O: ≥ 100 µM

Study 5
Target: Calcium/calmodulin-dependent protein kinase type II subunit alpha (CAMK2A, Homo sapiens, UniProt Q9UQM7)
Chain of UniProt Q9UQM7 (whole entry, looked up): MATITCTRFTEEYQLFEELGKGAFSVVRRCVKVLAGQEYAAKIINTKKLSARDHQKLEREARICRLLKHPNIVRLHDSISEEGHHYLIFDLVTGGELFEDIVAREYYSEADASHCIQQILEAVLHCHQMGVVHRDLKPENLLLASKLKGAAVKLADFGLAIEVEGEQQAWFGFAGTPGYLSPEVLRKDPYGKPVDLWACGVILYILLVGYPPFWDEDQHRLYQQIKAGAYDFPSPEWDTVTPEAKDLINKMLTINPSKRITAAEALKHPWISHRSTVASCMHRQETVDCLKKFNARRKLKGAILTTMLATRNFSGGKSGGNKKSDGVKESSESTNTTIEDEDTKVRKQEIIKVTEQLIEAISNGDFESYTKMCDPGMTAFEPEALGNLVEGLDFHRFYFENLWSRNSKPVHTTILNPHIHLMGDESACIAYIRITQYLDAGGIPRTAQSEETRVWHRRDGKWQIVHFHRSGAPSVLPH
Effect on: enzyme activity
Action: inhibitor
Tested at: 10 µM
Quantity: inhibition
N[C@H](C(=O)O)c1cc(O)no1: 40%
COc1cc2occc2c2oc(=O)ccc12: -26%
C[C@]12CC[C@H](O)C[C@@]1(O)CC[C@@H]1[C@@H]2CC[C@]2(C)[C@@H](c3ccc(=O)oc3)[C@@H](O)[C@H]3O[C@]132: 1%
CC(=O)O[C@@]12CO[C@@H]1C[C@H](O[C@@H]1OC[C@@H](O)[C@H](O)[C@H]1O)[C@@]1(C)C(=O)[C@H](O)C3=C(C)[C@@H](OC(=O)[C@H](O)[C@@H](NC(=O)c4ccccc4)c4ccccc4)C[C@@](O)([C@@H](OC(=O)c4ccccc4)[C@H]21)C3(C)C: -21%
Cc1ncc(CNC(=O)N(CCCl)N=O)c(N)n1: 4%

Some of these lines once more (study 1):
C[C@H]1CNCCc2ccc(Cl)cc21: 82%
N=C(N)NN: 91.1%
ClCC1C(CCl)[C@@]2(Cl)C(Cl)=C(Cl)[C@]1(Cl)C2(Cl)Cl (stereo partly drawn): 5.77%
CCC(=O)O[C@H]1CC[C@H]2[C@@H]3CCC4=CC(=O)CC[C@]4(C)[C@H]3CC[C@]12C: 38.4%
COc1ccc(CN2CCNCC2)c(OC)c1OC: 100%
